Experimental data pooled from the literature.
Several values in a cell are separate wells, animals, samples, runs or records. ± gives the spread as reported. Converted amounts (≈) assume the structure as drawn.
UCHL1: Ubiquitin carboxyl-terminal hydrolase isozyme L1 (UCHL1, Homo sapiens, UniProt P09936)
Chain of UniProt P09936 (whole entry, looked up): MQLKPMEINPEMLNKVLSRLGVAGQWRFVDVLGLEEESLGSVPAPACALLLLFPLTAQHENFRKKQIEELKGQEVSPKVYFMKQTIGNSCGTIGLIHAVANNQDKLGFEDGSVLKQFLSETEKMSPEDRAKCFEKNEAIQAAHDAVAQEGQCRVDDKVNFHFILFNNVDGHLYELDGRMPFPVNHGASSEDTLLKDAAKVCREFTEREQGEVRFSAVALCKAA

| Structure (SMILES) | tested on | test | test system | setting | scale | measurement | result |
| --- | --- | --- | --- | --- | --- | --- | --- |
| Cc1nn(CC(F)(F)F)cc1Nc1nccc(NCc2ccc(S(N)(=O)=O)cc2)n1 | 403 human wild-type kinases | scanMAX binding | – | 1 µM, hit below 10% of control | relative to: hits over kinases tested, direction not given | selectivity score S10 | 0.002 |
| Cc1ccc(Nc2nccc(N(C)c3ccc4c(C)n(C)nc4c3)n2)cc1S(N)(=O)=O | CaMKII (rat) | kinase activity, inhibitor | – | 0.3 µM | – | inhibition | 6% |
| Oc1ccccc1-c1n[nH]cc1-c1ccnc2ccccc12 | CMK1 (Candida albicans) | kinase binding, MIB/MS competition | Candida albicans lysate | 10 µM | relative to: DMSO | log2 fold change | 0.4 |
| CC(C)Cn1c(=O)n(C)c(=O)c2[nH]cnc21 | cGMP antibody | acetylated cGMP EIA | – | – | – | EC50 | > 1000 µM |
| c1cc(CN2CCOCC2)cc(Nc2nccc(NCCc3cnc[nH]3)n2)c1 | 403 human wild-type kinases | scanMAX | – | – | PoC below 10 | number of kinases bound | 9 |
| O=S(=O)(NCCNC/C=C/c1ccc(Br)cc1)c1cccc2cnccc12 | PKA | inhibitor | mouse zygotes | 20 µM, injection, hCG, 48 h post, early embryonic development | – | embryos arrested at zygote stage | 0% |
| Clc1ccc(C(c2c[nH]c3ccccc23)c2c[nH]c3ccccc23)cc1 | Gal4-VP16 | reporter gene, Gal4-VP16 control reporter | – | 10 µM | relative to: vehicle | activation | 1 fold |
| OC[C@H]1O[C@@H]2O[C@H]3[C@H](O)[C@@H](O)[C@@H](O[C@H]4[C@H](O)[C@@H](O)[C@@H](O[C@H]5[C@H](O)[C@@H](O)[C@@H](O[C@H]6[C@H](O)[C@@H](O)[C@@H](O[C@H]7[C@H](O)[C@@H](O)[C@@H](O[C@H]8[C@H](O)[C@@H](O)[C@@H](O[C@H]1[C@H](O)[C@H]2O)O[C@@H]8CO)O[C@@H]7CO)O[C@@H]6CO)O[C@@H]5CO)O[C@@H]4CO)O[C@@H]3CO | LuxR | Escherichia coli sensor | – | 100 µM | higher = stronger induction | bioluminescence induction | 895 ± 11 RLU |
| NS(=O)(=O)c1ccc(CNc2nc(Nc3cccc(CN4CCOCC4)c3)ncc2C2CC2)cc1 | 403 human wild-type kinases | scanMAX binding | – | 1 µM, hit below 10% of control | relative to: hits over kinases tested, direction not given | selectivity score S10 | 0.007 |
| C=CC(=O)N1[C@@H](c2ccc3c(c2)OCO3)c2[nH]c3ccccc3c2C[C@@H]1C(=O)NC | PQLC3 Cys135 human | cysteine IA-DTB labelling, covalent inhibitor, MS-ABPP | 22Rv1 | 20 µM, 3 h | – | inhibition | 45% and 44% |
| O=c1c(O)c(-c2cc(O)c(O)c(O)c2)oc2cc(O)cc(O)c12 | gasdermin E (human) | inhibitor | – | 100 µM, 2 h | – | inhibition | 74.9% |
| Cc1cc(C)nc(N(C#N)CN2C(=O)c3ccccc3S2(=O)=O)n1 | UCHL1 | covalent, intact protein LC-MS | – | 12.5 µM | – | labelling | 12% |
| CCCCC(=O)NC(c1ccc(N(CC)CC)cc1)c1ccc2cccnc2c1O (stereo not shown) | Trypanosoma cruzi | reporter translation, Renilla luciferase mRNA translation | cell-free extract | 40 µM | relative to: DMSO | inhibition | -10.4% |
| Nc1ncnc2c1ncn2[C@@H]1O[C@H](COP(=O)([O-])OP(=O)([O-])OP(=O)(O)O)[C@@H](O)[C@H]1O.[Mg+2] | P2X3 receptor (mouse) | ion current, patch clamp | nodose ganglion neurons, P2rx3+/+ mice | 10 µM, compound anion form | relative to: ATP-induced current | relative current | 0.829 ± 0.211 |
| COc1cc(C(=O)O)cc(OC)c1O | gasdermin E (human) | inhibitor | – | 100 µM, 2 h | – | inhibition | 78.9% |
| Cc1nn(CC(F)(F)F)cc1Nc1nccc(NCCc2cnc[nH]2)n1 | 403 human wild-type kinases | scanMAX binding | – | 1 µM, hit below 10% of control | relative to: hits over kinases tested, direction not given | selectivity score S10 | 0 |

| Structure (SMILES) | tested on | test | test system | setting | scale | measurement | result |
| --- | --- | --- | --- | --- | --- | --- | --- |
| c1coc(-c2n[nH]cc2-c2ccnc3ccccc23)c1 | BUB1 (Candida albicans) | kinase binding, MIB/MS competition | Candida albicans lysate | 10 µM | relative to: DMSO | log2 fold change | -0.05 |
| c1cc(CN2CCOCC2)cc(Nc2ncc(C3CC3)c(NCCc3c[nH]cn3)n2)c1 | 403 human wild-type kinases | scanMAX | – | – | PoC below 10 | number of kinases bound | 27 |
| Cc1cc(C(=O)CCl)c(C)n1-c1cccc(Cl)c1 | UCHL1 | covalent, intact protein LC-MS | – | 12.5 µM | – | labelling | 10.3% |
| NS(=O)(=O)c1ccc(CNc2nc(Nc3cccc(NC(=O)N4CCCC4)c3)ncc2C2CC2)cc1 | 403 human wild-type kinases | scanMAX binding | – | 1 µM, hit below 10% of control | relative to: hits over kinases tested, direction not given | selectivity score S10 | 0.002 |
| Cc1cc(F)cc2c(CCC(=O)N[C@@H]3C(=O)NC[C@H]3O)c(-c3ccc(F)cc3)[nH]c12 | AMPA glutamate receptor | binding | – | 10 µM | – | inhibition | -3% |
| CCCCCCCCC(=O)c1cc(O)c(O)c(O)c1 | Gal4-VP16 | reporter gene, Gal4-VP16 control reporter | – | 10 µM | relative to: vehicle | activation | 1.41 fold |
| O=C/C(=C/Cc1ccc(O)cc1)c1ccc(O)cc1 | STAT3 | reporter gene, inhibitor | NCI-H460 | – | – | IC50 | 3.11 µg/mL (≈ 12.2 µM) |
| CCC(C)CNCC(=O)N1CCc2sccc2C1COc1cccc(C)c1 (stereo not shown) | Fyn | inhibitor | cells, COS-1, expressing Fyn | concentration not given | – | palmitoylation | inactive |
| CCC(=O)NS(=O)(=O)c1ccc(-c2c(-c3ccccc3)noc2C)cc1 | Gal4-VP16 | reporter gene, Gal4-VP16 control reporter | – | 50 µM | relative to: vehicle | activation | 0.73 fold |
| CN(C(=O)n1cnc(-c2ccc[n+]([O-])c2)c1)C1CCCCC1 | L-type calcium channel | – | – | concentration not given, dihydropyridine site | – | inhibition | 20.1% |
| [Ca+2] | PP2C | enzyme activity | – | concentration not given | – | activity class | inactive |
| O=C(NCCCNc1ccnc(Nc2cccc(NC(=O)N3CCCC3)c2)n1)C1CCC1 | 403 human wild-type kinases | scanMAX | – | – | PoC below 10 | number of kinases bound | 3 |
| CC(Nc1nc(N2CCCC2)nc2ccccc12)c1ccccc1 (stereo not shown) | transportin-1/2 | FUS nuclear import, high content imaging | HeLa Kyoto reporter | 15.8 µM, 2 h | – | cells with nuclear reporter | 98.4% |
| Cc1nn(CC(F)(F)F)cc1Nc1ncc(Br)c(NCCCNC(=O)C2CCC2)n1 | 403 human wild-type kinases | scanMAX | – | – | PoC below 10 | number of kinases bound | 62 |
| CNCc1ccc(-c2cc(-c3nc(-c4ccc(S(=O)(=O)C(C)C)cc4)cnc3N)on2)cc1 | CaMKII (rat) | inhibitor | – | 0.4 µM, with: ATP at Km | – | inhibition | 0% |
